Published values collected from several papers.
A part holds a random share of what one study measured. Positions count from the first letter of the parent shown.

Study 1
Target: CCNB1, cyclin fold, Cln2 fusion (human)
Method: yeast growth competition, sequencing
Sample: yeast
Notes: weak parent motif
Reference: not given
Reading: higher = stronger binding
Endpoint: normalised enrichment score
Parent: CDC6 docking peptide (human); TLKGRRLVFDNQL
N11H: 0.193
D10N: 1.78
G4M: 1.5
R6Y: 0.183
R5Y: -0.116
L2T: -0.66
F9Y: 0.703
Q12K: 0.554
R6L: 0.36
F9T: 0.0147
L2I: 0.0281
T1L: 0.696
R6F: -0.524
K3S: 0.469
F9Q: 0.117
L2H: 0.249
R6G: 0.00462

Study 2
Target: RNA binding protein fox-1 homolog 2, RRM domain, GST-SBP tag (RBFOX2, Homo sapiens, UniProt O43251-10, residues 100-194)
Method: RNA Bind-n-Seq
Molecule type: RNA
Sample: in vitro
Tested at: 365 nM
Notes: natural RNA segment, single round, ends assumed
Reference: no-protein control
Reading: higher = stronger binding
Endpoint: RBNS enrichment (R)
Constant ends, left off below: GGGAGUUCUACAGUCCGACGAUC … UGGAAUUCUCGGGUGCCAA
Construct (chain): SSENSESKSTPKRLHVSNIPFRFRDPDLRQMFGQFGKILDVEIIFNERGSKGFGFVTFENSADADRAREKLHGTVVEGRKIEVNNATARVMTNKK
UGCGAAUCUCAGAGCAGGAGAAGUUGCAGCUUACUGAUCCCUCAGUGCUCACAGUACUCAUGUGGGGCAGCCACACUAACUGCAUUAGCAGUGUGGUUACUUCUUUCUUC: 0.369
CGACUGAUAGUGUGUUCUUUCCGGGAUCACAAACAUUAACAAAAAAGUUAACUUAUGUGACUUGGCAGUUAUUCUAUACCAUUUCCUGUCCAUUAAAAUUUUUAAAGGAA: 0.266
UUGGUUGGUUUGUUUUCUAGAAGUACGUUCAGAUGCUUUGGGGAAUGCAAUGUAUGAUUUGCUAGCUCUCUCACCACUUAACUCACUGUGAGGAUAAAUAUGCAUGCUUU: 48.5
CACCUCGGUGUUUCUGUACCAGAGCCUGCGCUGCCCACCGUUGGAGCCCCUCGGAGGGGAGCAACCCGGUGCCUGCUGCUUCACCACUGCCGGCCUCAGGACCCUCCCUG: 0.306
GAAUAUUGCAAAAGGGAGAGGAAGGGGCCUUAUGGGAAUAGUGAAAAGGCUCAGACCGACCGAUGGCAAGAUCUGCAAGCGUCUCAAAGCCCAGGCAGAAAAGGACUUUU: 0.739
CUCACUUCAGAGUGUGACUCUUUAAAUAUUAAAAUAGAUACUAACUGUUCAUAGAACAGGCCGAUUCUGAUUAGAUUUUAUCAGGGAAUCUGUUAAGAUAUGUUUGGUGA: 0.378
UUGCUGACUAGGGCUUGGGCUAGAAGAGAAGAGCUGGAUUACUCGCUGUUUCCUGCACUUAAGCCUUGGCAGGAGCCAAGGUCUAUGGUUUUUUGAGAUGAAGCAUUUGU: 1.67
UUUAAGGUGUCUUUAUGAAGUUUGCUAUUCUGGCAAUAAACUUUUAGACUUUUGAAGUGUUUGUGUUUUAAUUUAAUAUGUUUAUAAGCAUGUAUAAACAUUUAGCAUAU: 54.3
UAAGGUGAAUAGACACAUUAAGGUGGCAAAUGAUCUACUUUUUCAAGUAAUAUUGCUCCUUUAAAAGGUGUGUUUUUAUUUCUGGUGAUGUCAGGGGCAACGGGGUAUCU: 0.366
GCAGGAUGCCCUGUUGGGGGCUUCAGGUCUCUGUGGGUGGGAAUGCAAGUGAACUUGGGAGGGGGCACGGGCCUGUAGAUCAGGGAUAGCGCUGUUGAUCCCCUCUCUGU: 0.514
UCAAGAAGUGCCUAAAAAUGGAUUUGUGUUGAUUUUAAGCCCAUCUAAUAAAUUAUAUGUAUUUUCUUGGUAUCGUAUGGCUUGUCUUAACUGAUGACACAGCCUAGAGG: 0.357
CUCCCCCCACUUGUCCCCCGUCCUUGCAGCUCCAGCACUGCCUUUGUGGGUGACCACUCCAGACCCUCCUGCCAAGGAGAGCAUGGGAGAGGGCAGAGUACAAUGGGGUG: 0.367

Study 3
Target: Prothrombin, mature alpha-thrombin (F2, Homo sapiens, UniProt P00734)
Method: aptamer microarray, sandwich
Molecule type: DNA with 2'F-ANA
Sample: in vitro
Tested at: 200 nM
Notes: whole 15-mer aptamer, many near background
Together with: Cy3 exosite-II aptamer, 400 nM
Reading: higher = stronger binding
Endpoint: mean fluorescence intensity
Sequence: GGTTGGTGTGGTTGG
2'F-ANA at 2 3 4 6 12 13 15: 539 a.u.
2'F-ANA at 6 7 11 12 13: 598 a.u.
2'F-ANA at 3 5 7 8 9 13: 99.1 a.u.
2'F-ANA at 3 9 11 12 13 15: 1180 a.u.
2'F-ANA at 1 2 4 5 6 8 9 12 13: 76 a.u.
2'F-ANA at 3 6 7 10 11 12: 623 a.u.
2'F-ANA at 3 4 7 11 12 13 14: 379 a.u.
2'F-ANA at 1 4 5 6 7 9 10 12 13 14: 49.4 a.u.
2'F-ANA at 1 2 3 4 7 8 11 12: 391 a.u.
2'F-ANA at 1 5 12 13 15: 79.4 a.u.
2'F-ANA at 1 2 5 9 10 11 12 14 15: 46.5 a.u.
2'F-ANA at 6 8 12 15: 818 a.u.
2'F-ANA at 2 3 7 10 11 12 13 14: 296 a.u.

Single results of other studies
PhoQ, residues 284 288 289 292 302 303 TLSLKA — fold induction (PhoP, residues 12 14 15 18 19 SPWRL (Escherichia coli, UniProt P23836); Sort-seq, item: YFP reporter; E. coli; PhoQ-PhoP variant library, together with: 10 µM Mg2+; reference: high Mg2+ state, higher = stronger signaling): 21

A few entries again (study 1):
R5Y: -0.116
L2T: -0.66
F9Y: 0.703
Q12K: 0.554
R6L: 0.36
